Measurements of several laboratories.
Several values in a cell are separate wells, animals, samples, runs or records.
Target: Rho-associated protein kinase 2 (ROCK2, Homo sapiens, UniProt O75116)

CN1CCN(Cc2ccc(NC(=O)c3cccc(C#Cc4cnc(N)c5ncccc45)c3)cc2C(F)(F)F)CC1 — remaining binding (cell-free assay, competition with immobilised ligand; 0.5 µM): 54%
Cc1cccc(O[C@H]2CCC[C@@H](C(C)CNCc3ccncc3)C2)c1 (relative stereo) — inhibition (enzyme activity, inhibitor; 10 µM): 13%
C=CC(=O)Nc1cccc(-c2cnc3[nH]cc(C(=O)NC(C)(C)C)c3n2)c1 — inhibition (kinase activity; 0.1 µM): 41%
COc1cc(Nc2nccc(-c3cnn4nc(OC)ccc34)n2)cc(C(F)(F)F)c1 — remaining binding (binding, competition with immobilised ligand; 1 µM): 92%
CNC1C[S+]2CC[S+]3CC[S+](C1)[Ru-4]321([N]=C=S)[n]2c3ccc(OC)cc3c3c4c(c5cc(F)c[n+]1c5c32)C(=O)NC4=O (centres unmarked) — remaining binding (KinomeScan; 0.1 µM; baseline: untreated): 88%
COCC12C(=O)NC3C4(C(OC)CC1O)C1CC5(O)C(OC)C(O)C(OC(C)=O)(C1C5OC(=O)c1ccccc1)C3(O)C(OC)C24 (centres unmarked) — remaining activity (kinase activity, inhibitor, ProQinase kinase profiling; 25 µM; baseline: control): 99% and 113%
COc1ccc(NC(=O)Nc2ccc3c(c2)C(=O)N(C(C)CO)CC(C)C(CN(C)Cc2ccc4c(c2)OCO4)O3)cc1 (centres unmarked) — remaining binding (binding, competition with immobilised ligand; 10 µM): 100%
Nc1nc(Nc2ccccc2)sc1C(=O)c1ccccc1 — remaining activity (enzyme activity, inhibitor; 10 µM): 42%
C=CC(=O)N1Cc2nc(-c3cc(-c4cc(Cl)cnc4Cl)c(F)cc3F)n(-c3ccncn3)c2C1 — inhibition (cell-free assay, inhibitor; 1 µM): -1.5%
Cc1c[nH]c2nccc(-c3ccc(C(=O)N[C@@H]4c5c(F)cc(C(F)F)cc5C[C@@H]4O)cn3)c12 — remaining binding (binding, competition with immobilised ligand; 3 µM): 0.2%
c1ccc2c(Nc3cc(C4CCC4)[nH]n3)nc(Nc3ccc4nc[nH]c4c3)nc2c1 — remaining activity (enzyme activity, inhibitor; 0.25 µM): 75%
CNS(=O)(=O)Nc1nccc(Cc2c(C)c3ccc(Oc4ncccc4F)cc3oc2=O)c1F — remaining binding (binding, competition with immobilised ligand; 10 µM): 70%
CCN1CCN(Cc2ccc(C(=O)Nc3ccc(C)c(NCc4cnc5[nH]ccc5c4OC)c3)cc2C(F)(F)F)CC1 — remaining binding (binding, competition with immobilised ligand; 1 µM): 100%
CC(C)=CC1OC(C)(C)C2C=C3C(=O)C(Cl)=CC(O)C3C3C(O)C4OC4C(=O)C132 (centres unmarked) — remaining binding (cell-free assay, competition with immobilised ligand; 10 µM): 74%
Cc1ccc(C)c(-c2ccc3nc(NC(=O)C4CCCCC4)nn3c2)c1 — remaining activity (enzyme activity, Dundee kinase panel; 10 µM): 92%
Cc1[nH]nc2c1N=C(c1ccccc1Cl)c1cnc(N3CCOCC3)cc1N2 — inhibition (enzyme activity, inhibitor; 0.5 µM): 0.5%
CNC(=O)C1CCN(c2cc(C)c(F)cc2NC(=O)c2ccc(-c3cc(O)ccc3C)c(C)c2)CC1 — remaining binding (binding, competition with immobilised ligand; 1 µM): 100%
Nc1ncc2c(n1)-c1c([nH]c3ccc(C4=CCOCC4)cc13)CCC2 — remaining binding (binding, competition with immobilised ligand; 1 µM): 91%
Cc1cccc(-c2ccc3nc(NC(=O)C4CCOCC4)nn3c2)c1 — remaining activity (enzyme activity, Dundee kinase panel; 10 µM): 86%
CC(=O)N1c2ccc(-c3ccc(CNC(=O)c4cn5cc(-c6cnc(N)nc6)nc(N6CCOCC6)c5n4)cc3)cc2CC[C@@H]1C — remaining binding (KINOMEscan; 10 µM): 70%
NC(=O)[C@@H](O)C[C@H]1CCc2sc3ncnc(O[C@H]4CC[C@H](N5CCOCC5)CC4)c3c21 — inhibition (enzyme activity, inhibitor; 10 µM): 12%
COC(=O)[C@@]1(C)C=C(C(=O)Nc2cccc(C(=O)Nc3ccc(Nc4nccc(-c5cccnc5)n4)c(C)c3)c2)C(=O)CC1 — remaining activity (enzyme activity, inhibitor, radiometric; 1 µM): 92%
COc1c(Cl)cccc1Nc1c(-c2ccncc2C#C[C@@]2(C)CCCN2C(=O)/C=C/CN(C)C)[nH]c2c1C(=O)NCC2 — remaining binding (binding, competition with immobilised ligand; 3 µM): 86%

Repeated from above:
Cc1cccc(O[C@H]2CCC[C@@H](C(C)CNCc3ccncc3)C2)c1 (relative stereo) — inhibition (enzyme activity, inhibitor; 10 µM): 13%
Cc1ccc(C)c(-c2ccc3nc(NC(=O)C4CCCCC4)nn3c2)c1 — remaining activity (enzyme activity, Dundee kinase panel; 10 µM): 92%
CC(=O)N1c2ccc(-c3ccc(CNC(=O)c4cn5cc(-c6cnc(N)nc6)nc(N6CCOCC6)c5n4)cc3)cc2CC[C@@H]1C — remaining binding (KINOMEscan; 10 µM): 70%
